{"data": "Measured values of several laboratories", "note": "Each numbered part is a random draw from the data of one study; scales do not carry over between parts. Several values in a cell are separate wells, animals, samples, runs or records.", "UniProt Q13237, sequence (whole entry, looked up)": "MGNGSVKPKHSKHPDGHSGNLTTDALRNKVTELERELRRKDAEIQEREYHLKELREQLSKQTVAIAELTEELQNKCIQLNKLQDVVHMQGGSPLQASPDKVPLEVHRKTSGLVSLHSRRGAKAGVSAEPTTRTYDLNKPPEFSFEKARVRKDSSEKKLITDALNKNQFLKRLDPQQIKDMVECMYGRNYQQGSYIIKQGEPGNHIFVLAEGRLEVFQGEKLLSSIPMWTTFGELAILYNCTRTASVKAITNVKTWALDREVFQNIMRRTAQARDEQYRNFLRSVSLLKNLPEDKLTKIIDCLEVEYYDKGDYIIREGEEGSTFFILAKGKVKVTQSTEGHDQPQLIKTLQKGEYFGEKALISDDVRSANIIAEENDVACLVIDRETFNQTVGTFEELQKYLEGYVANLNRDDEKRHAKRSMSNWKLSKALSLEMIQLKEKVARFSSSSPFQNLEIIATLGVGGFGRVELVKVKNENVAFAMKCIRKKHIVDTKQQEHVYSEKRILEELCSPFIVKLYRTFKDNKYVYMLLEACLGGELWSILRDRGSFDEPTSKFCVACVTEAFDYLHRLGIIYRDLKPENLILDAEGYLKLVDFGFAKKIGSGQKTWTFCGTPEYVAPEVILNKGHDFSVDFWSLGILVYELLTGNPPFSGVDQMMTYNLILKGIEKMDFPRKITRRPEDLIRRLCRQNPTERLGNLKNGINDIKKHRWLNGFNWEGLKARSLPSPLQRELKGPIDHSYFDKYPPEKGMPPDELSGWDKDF", "UniProt Q13554, sequence (whole entry, looked up)": "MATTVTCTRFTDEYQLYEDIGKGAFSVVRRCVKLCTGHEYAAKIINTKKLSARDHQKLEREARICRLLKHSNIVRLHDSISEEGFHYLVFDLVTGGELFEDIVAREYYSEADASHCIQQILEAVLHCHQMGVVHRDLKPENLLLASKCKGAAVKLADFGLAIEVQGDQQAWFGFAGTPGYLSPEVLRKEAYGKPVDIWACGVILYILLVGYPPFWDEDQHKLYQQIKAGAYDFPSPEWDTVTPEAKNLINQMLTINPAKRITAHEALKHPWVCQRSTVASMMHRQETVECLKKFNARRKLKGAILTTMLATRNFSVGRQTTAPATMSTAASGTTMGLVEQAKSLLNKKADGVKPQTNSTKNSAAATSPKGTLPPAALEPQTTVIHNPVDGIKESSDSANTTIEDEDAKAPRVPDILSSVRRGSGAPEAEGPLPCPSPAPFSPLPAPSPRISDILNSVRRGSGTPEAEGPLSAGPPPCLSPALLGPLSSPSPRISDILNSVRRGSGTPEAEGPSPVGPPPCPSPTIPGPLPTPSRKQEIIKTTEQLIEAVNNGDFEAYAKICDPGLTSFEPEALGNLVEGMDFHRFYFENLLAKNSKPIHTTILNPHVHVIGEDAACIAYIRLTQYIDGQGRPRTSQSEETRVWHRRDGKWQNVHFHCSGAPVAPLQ", "UniProt P14616, sequence (whole entry, looked up)": "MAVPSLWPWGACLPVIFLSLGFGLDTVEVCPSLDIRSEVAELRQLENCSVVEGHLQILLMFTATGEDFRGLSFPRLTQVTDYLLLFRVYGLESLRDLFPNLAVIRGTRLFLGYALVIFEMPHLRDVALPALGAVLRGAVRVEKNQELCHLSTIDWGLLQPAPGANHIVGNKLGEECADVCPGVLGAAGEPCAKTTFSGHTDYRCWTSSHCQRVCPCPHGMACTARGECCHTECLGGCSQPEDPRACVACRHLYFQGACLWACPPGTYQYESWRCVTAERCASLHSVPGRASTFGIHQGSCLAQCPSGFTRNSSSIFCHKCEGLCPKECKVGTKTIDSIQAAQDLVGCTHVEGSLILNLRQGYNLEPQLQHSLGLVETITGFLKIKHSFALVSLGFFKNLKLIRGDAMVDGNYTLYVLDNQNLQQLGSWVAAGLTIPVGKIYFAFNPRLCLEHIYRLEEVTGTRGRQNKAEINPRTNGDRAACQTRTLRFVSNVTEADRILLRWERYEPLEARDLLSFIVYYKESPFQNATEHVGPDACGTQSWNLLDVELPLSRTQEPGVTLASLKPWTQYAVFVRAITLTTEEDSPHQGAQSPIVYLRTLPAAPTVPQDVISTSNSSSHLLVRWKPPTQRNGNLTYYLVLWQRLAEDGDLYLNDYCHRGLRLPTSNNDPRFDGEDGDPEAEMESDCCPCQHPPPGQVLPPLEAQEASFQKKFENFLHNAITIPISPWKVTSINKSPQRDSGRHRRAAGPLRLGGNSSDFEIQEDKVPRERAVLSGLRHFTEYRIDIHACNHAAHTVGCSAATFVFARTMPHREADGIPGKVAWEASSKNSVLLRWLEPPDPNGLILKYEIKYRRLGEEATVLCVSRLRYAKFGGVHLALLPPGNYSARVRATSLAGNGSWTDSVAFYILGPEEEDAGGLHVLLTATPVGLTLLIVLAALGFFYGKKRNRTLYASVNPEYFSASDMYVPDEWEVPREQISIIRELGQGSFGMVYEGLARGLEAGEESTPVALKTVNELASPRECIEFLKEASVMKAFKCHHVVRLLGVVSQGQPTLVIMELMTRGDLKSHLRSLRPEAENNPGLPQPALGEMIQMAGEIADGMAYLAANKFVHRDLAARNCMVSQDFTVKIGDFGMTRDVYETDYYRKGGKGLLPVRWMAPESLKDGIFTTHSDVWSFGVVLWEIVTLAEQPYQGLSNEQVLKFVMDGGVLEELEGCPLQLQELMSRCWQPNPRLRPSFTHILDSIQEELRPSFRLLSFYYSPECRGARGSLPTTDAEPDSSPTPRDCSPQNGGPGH", "UniProt Q9HC98, sequence (whole entry, looked up)": "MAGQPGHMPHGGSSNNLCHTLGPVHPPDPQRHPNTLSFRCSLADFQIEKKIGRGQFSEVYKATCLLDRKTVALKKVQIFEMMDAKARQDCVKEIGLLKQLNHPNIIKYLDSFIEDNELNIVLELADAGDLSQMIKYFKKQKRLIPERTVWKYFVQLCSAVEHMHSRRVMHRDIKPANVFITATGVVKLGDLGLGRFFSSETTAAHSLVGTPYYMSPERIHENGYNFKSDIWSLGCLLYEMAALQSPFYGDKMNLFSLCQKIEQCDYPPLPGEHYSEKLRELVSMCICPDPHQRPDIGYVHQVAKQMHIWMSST", "UniProt P11802, sequence (whole entry, looked up)": "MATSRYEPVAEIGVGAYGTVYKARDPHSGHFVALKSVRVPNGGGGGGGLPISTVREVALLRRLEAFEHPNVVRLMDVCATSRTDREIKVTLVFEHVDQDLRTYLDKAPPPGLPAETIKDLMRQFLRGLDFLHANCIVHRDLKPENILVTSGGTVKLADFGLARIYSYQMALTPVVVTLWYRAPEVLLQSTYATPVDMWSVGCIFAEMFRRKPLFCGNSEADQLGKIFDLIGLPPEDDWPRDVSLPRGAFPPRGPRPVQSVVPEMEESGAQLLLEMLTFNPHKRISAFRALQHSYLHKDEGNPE"}
{"data": "Set 1", "target": "Serine/threonine-protein kinase TAO1 (TAOK1, Homo sapiens, UniProt Q7L7X3)", "effect on": "enzyme activity", "action": "inhibitor", "concentration": "0.5 µM", "relative to": "control", "UniProt Q7L7X3, sequence (whole entry, looked up)": "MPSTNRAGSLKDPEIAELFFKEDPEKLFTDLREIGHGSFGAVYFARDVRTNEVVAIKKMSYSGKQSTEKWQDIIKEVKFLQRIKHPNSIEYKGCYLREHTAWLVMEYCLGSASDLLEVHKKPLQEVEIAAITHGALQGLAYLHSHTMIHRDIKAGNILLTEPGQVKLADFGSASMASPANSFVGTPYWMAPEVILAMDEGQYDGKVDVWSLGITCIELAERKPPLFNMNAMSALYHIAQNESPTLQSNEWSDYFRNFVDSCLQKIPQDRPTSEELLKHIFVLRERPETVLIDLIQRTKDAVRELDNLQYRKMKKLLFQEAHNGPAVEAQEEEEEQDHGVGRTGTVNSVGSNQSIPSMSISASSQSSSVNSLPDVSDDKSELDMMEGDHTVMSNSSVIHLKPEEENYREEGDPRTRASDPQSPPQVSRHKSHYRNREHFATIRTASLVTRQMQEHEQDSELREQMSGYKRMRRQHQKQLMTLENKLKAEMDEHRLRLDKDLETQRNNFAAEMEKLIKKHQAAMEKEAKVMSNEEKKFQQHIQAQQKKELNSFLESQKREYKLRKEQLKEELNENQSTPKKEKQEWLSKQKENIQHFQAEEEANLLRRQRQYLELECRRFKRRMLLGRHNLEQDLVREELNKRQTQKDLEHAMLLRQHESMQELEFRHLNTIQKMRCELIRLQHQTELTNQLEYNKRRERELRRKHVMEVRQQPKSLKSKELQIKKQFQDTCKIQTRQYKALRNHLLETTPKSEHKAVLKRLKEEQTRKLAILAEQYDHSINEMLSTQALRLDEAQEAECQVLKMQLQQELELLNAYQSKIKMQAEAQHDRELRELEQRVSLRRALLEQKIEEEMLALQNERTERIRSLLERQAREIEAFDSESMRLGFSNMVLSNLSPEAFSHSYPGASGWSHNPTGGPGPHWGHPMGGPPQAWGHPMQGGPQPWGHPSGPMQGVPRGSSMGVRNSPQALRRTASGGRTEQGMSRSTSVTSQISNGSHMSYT"}
{"Compound": "O=C(c1cc2cc(O)ccc2[nH]1)c1cc2cc(O)ccc2[nH]1", "remaining activity [%]": 85.6}
{"Compound": "COc1ccc2c(c1)c(C1=C(c3c[nH]c4ccccc34)C(=O)NC1=O)cn2CCCN(C)C", "remaining activity [%]": 99.5}
{"Compound": "O=C1Nc2ccc(Br)cc2/C1=C/c1cc2c([nH]1)CCCC2", "remaining activity [%]": 92.3}
{"Compound": "O=C1Cc2c([nH]c3ccc(Br)cc23)-c2ccccc2N1", "remaining activity [%]": 99.4}
{"Compound": "Oc1cccc(-c2nc(N3CCOCC3)c3oc4ncccc4c3n2)c1", "remaining activity [%]": 91.6}
{"Compound": "O=c1cc(N2CCOCC2)oc2c(-c3ccccc3)cccc12", "remaining activity [%]": 86.4}
{"Compound": "N#Cc1cnc2cnc(NCc3cccnc3)cc2c1Nc1ccc(F)c(Cl)c1", "remaining activity [%]": 89.9}
{"Compound": "CN(C)S(=O)(=O)c1ccc2c(c1)/C(=C/c1cc3c([nH]1)CCCC3)C(=O)N2", "remaining activity [%]": 85.8}
{"Compound": "O=Nc1c(-c2c(O)[nH]c3cc(Br)ccc23)[nH]c2ccccc12", "remaining activity [%]": 98.5}
{"Compound": "Cc1cc(Nc2cc(N3CCN(C)CC3)nc(Sc3ccc(NC(=O)C4CC4)cc3)n2)[nH]n1", "remaining activity [%]": 44.6}
{"Compound": "CCCNC(=O)Nc1ccc(Oc2ncnc3cc(OC)c(OC)cc23)cc1Cl", "remaining activity [%]": 92.2}
{"Compound": "CN1CCN(c2ccc3nc(-c4c(N)c5c(F)cccc5[nH]c4=O)[nH]c3c2)CC1", "remaining activity [%]": 98.4}
{"Compound": "CCCCc1c(-c2ccc(OC)cc2)[nH]c2nccnc12", "remaining activity [%]": 87}
{"Compound": "Cc1ccc(S(=O)(=O)/C=C/C#N)cc1", "remaining activity [%]": 96.5}
{"Compound": "COc1ccc(COc2ccc(Cc3cnc(N)nc3N)cc2OC)cc1", "remaining activity [%]": 110}
{"Compound": "c1ccc2c(-c3ccncc3)c[nH]c2c1", "remaining activity [%]": 88.4}
{"Compound": "COc1cccc(-c2cc(=O)c3ccccc3o2)c1N", "remaining activity [%]": 77.9}
{"Compound": "O=C1Nc2ccccc2/C1=C\\c1c(Cl)[nH]c2ccccc12", "remaining activity [%]": 100}
{"Compound": "c1ccc(-c2n[nH]c3c2oc2ccccc23)cc1", "remaining activity [%]": 121}
{"Compound": "O=C1NC(=O)c2c1c1c3ccccc3[nH]c1n1cncc21", "remaining activity [%]": 135}
{"data": "Set 2", "target": "Calcium/calmodulin-dependent protein kinase type II subunit alpha (CAMK2A, Homo sapiens, UniProt Q9UQM7)", "effect on": "enzyme activity", "action": "inhibitor", "concentration": "10 µM", "UniProt Q9UQM7, sequence (whole entry, looked up)": "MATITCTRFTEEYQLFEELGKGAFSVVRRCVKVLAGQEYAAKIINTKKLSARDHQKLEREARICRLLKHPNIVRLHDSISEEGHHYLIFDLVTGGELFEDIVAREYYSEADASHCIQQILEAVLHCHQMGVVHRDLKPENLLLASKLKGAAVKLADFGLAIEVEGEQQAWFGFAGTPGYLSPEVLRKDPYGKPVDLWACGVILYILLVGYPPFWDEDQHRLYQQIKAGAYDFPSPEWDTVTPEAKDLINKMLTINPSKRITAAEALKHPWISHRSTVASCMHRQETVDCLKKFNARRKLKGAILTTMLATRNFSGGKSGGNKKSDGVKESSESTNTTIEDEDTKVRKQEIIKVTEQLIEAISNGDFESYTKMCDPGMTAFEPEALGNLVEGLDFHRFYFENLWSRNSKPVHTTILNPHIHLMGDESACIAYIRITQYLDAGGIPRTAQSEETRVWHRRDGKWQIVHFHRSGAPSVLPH"}
{"SMILES": "CC1(C)[C@@H](O)CC[C@]2(C)[C@H]3C(=O)C=C4[C@@H]5C[C@@](C)(C(=O)O)CC[C@]5(C)CC[C@@]4(C)[C@]3(C)CC[C@@H]12", "inhibition": "28%"}
{"SMILES": "CCc1nc(C(N)=O)c(Nc2ccc(N3CCC(N4CCN(C)CC4)CC3)c(OC)c2)nc1NC1CCOCC1", "inhibition": "-0.04% and 0.01%"}
{"SMILES": "CC(C)=C[C@H]1C[C@](C)(O)[C@@H]2[C@H]3CC[C@@H]4[C@@]5(C)CC[C@H](O[C@@H]6OC[C@H](O)[C@H](O[C@@H]7O[C@H](CO[C@@H]8O[C@H](CO)[C@@H](O)[C@H](O)[C@H]8O)[C@@H](O)[C@H](O)[C@H]7O[C@@H]7OC[C@@H](O)[C@H](O)[C@H]7O)[C@H]6O[C@@H]6O[C@@H](C)[C@H](O)[C@@H](O)[C@H]6O)C(C)(C)[C@@H]5CC[C@@]4(C)[C@@]34CO[C@@]2(C4)O1", "inhibition": "-14%"}
{"SMILES": "O=P(O)(O)OC[C@H]1OC(O)(COP(=O)(O)O)[C@@H](O)[C@@H]1O (stereo partly drawn)", "inhibition": "26%"}
{"SMILES": "CC1CCCCCCCCCCCCC(=O)C1 (stereo not drawn)", "inhibition": "-13%"}
{"SMILES": "CCCCCCO[C@@H](C)c1cccc(-c2csc(NC(=O)c3cc(Cl)c(/C=C(\\C)C(=O)O)c(Cl)c3)n2)c1OC", "inhibition": "-2%"}
{"SMILES": "CC(=O)OCCc1ccc(O)c(O)c1", "inhibition": "-31%"}
{"SMILES": "OCCN1CCN(CC/C=C2/c3ccccc3Sc3ccc(Cl)cc32)CC1", "inhibition": "-3%"}
{"SMILES": "C1=C/COCc2cc(ccc2OCCN2CCCC2)Nc2nccc(n2)-c2cccc(c2)COC/1", "inhibition": "-3%"}
{"SMILES": "CCOC(N)=O", "inhibition": "-16%"}
{"SMILES": "COc1ccc(CN2CCN(C(c3ccc(F)cc3)c3ccc(F)cc3)CC2)c(OC)c1OC", "inhibition": "-5%"}
{"SMILES": "Cn1nnc(-c2ccc(-c3ccc(N4C[C@H](CO)OC4=O)cc3F)cn2)n1", "inhibition": "-17%"}
{"SMILES": "CCCS(=O)(=O)Nc1ccc(F)c(C(=O)c2c[nH]c3ncc(-c4ccc(Cl)cc4)cc23)c1F", "inhibition": "-5%"}
{"SMILES": "Oc1cccnc1", "inhibition": "-35%"}
{"SMILES": "CC[C@@H]([C@H](C)O)n1ncn(-c2ccc(N3CCN(c4ccc(OC[C@@H]5CO[C@@](Cn6cncn6)(c6ccc(F)cc6F)C5)cc4)CC3)cc2)c1=O", "inhibition": "-6%"}
{"SMILES": "C[C@H](CC(=O)C[C@](C)(O)[C@@H]1CC(=O)[C@@]2(C)C3=C(C(=O)C[C@]12C)[C@@]1(C)CC[C@H](O)C(C)(C)[C@@H]1C[C@@H]3O)C(=O)O", "inhibition": "-26%"}
{"SMILES": "C[C@@H]1CC[C@]2(C(=O)O[C@@H]3O[C@H](CO)[C@@H](O)[C@H](O)[C@H]3O)CC[C@]3(C)C(=CC[C@@H]4[C@@]5(C)C[C@@H](O)[C@H](O)C(C)(C)[C@@H]5CC[C@]43C)[C@@H]2[C@]1(C)O", "inhibition": "-1%"}
{"SMILES": "C/C1=C\\[C@@H]2[C@H](C/C=C(/CO)[C@@H](O)[C@@H]3[C@@H](O)[C@@H](C)C[C@]3(O)C1=O)C2(C)C", "inhibition": "9%"}
{"SMILES": "CC[C@H](N)C(=O)O", "inhibition": "24%"}
{"SMILES": "COc1cc(C=O)ccc1O[C@@H]1O[C@H](CO)[C@@H](O)[C@H](O)[C@H]1O", "inhibition": "-16%"}
{"SMILES": "C=CC1=C(C(=O)O)N2C(=O)[C@@H](NC(=O)/C(=N\\OCC(=O)O)c3csc(N)n3)[C@H]2SC1", "inhibition": "-1%"}
{"SMILES": "COc1c(CC=C(C)C)c(O)cc2oc(=O)c3c4ccc(O)cc4oc3c12", "inhibition": "-15%"}
{"SMILES": "NCc1ccccc1O", "inhibition": "16%"}
{"data": "Set 3", "SMILES": "Cn1nc(C(F)(F)F)cc1-c1cnc(N2CCc3cc(S(=O)(=O)Nc4c(F)cc(Cl)cc4F)cc(N4CCCC4=O)c32)nc1", "method": "competition with immobilised ligand", "concentration": "1 µM"}
{"target": "FLT3 (Homo sapiens, UniProt P36888, ITD)", "effect on": "cell-free assay", "remaining binding": "96%"}
{"target": "CSNK1E (Homo sapiens, UniProt P49674)", "effect on": "cell-free assay", "remaining binding": "86%"}
{"target": "Tyrosine-protein kinase ABL1, phosphorylated (ABL1, Homo sapiens, UniProt P00519)", "effect on": "cell-free assay", "remaining binding": "95%"}
{"target": "Myosin-IIIb (MYO3B, Homo sapiens, UniProt Q8WXR4)", "effect on": "binding", "remaining binding": "100%"}
{"target": "ACVR2A (Homo sapiens, UniProt P27037)", "effect on": "cell-free assay", "remaining binding": "83%"}
{"target": "INSRR (Homo sapiens, UniProt P14616)", "effect on": "cell-free assay", "remaining binding": "90%"}
{"target": "CAMK2B (Homo sapiens, UniProt Q13554)", "effect on": "cell-free assay", "remaining binding": "92%"}
{"target": "ALK (Homo sapiens, UniProt Q9UM73, C1156Y)", "effect on": "cell-free assay", "remaining binding": "72%"}
{"target": "RET (Homo sapiens, UniProt P07949, M918T)", "effect on": "cell-free assay", "remaining binding": "100%"}
{"target": "EIF2AK2 (Homo sapiens, UniProt P19525)", "effect on": "cell-free assay", "remaining binding": "100%"}
{"target": "Cyclin-dependent kinase 4, with cyclin D3 (CDK4, Homo sapiens, UniProt P11802)", "effect on": "cell-free assay", "remaining binding": "82%"}
{"target": "WEE2 (Homo sapiens, UniProt P0C1S8)", "effect on": "cell-free assay", "remaining binding": "100%"}
{"target": "PRKG2 (Homo sapiens, UniProt Q13237)", "effect on": "cell-free assay", "remaining binding": "90%"}
{"target": "NEK6 (Homo sapiens, UniProt Q9HC98)", "effect on": "cell-free assay", "remaining binding": "100%"}
{"target": "ACVR2B (Homo sapiens, UniProt Q13705)", "effect on": "binding", "remaining binding": "87%"}
{"data": "Set 4", "Structure (SMILES)": "CC(=O)N[C@@H](Cc1c[nH]c2ccccc12)C(=O)N[C@@H](CCC(=O)C=[N+]=[N-])C(=O)OC(C)C", "dose": "dose not given", "relative to": "vehicle"}
{"item": "hypoxanthine", "host": "mouse, EL4 tumour-bearing", "matrix": "EL4 tumour", "log2 fold change": 0.121}
{"item": "succinimide", "host": "mouse, EL4 tumour-bearing", "matrix": "EL4 tumour", "log2 fold change": 0.251}
{"item": "O-methyltyrosine", "host": "mouse, EL4 tumour-bearing", "matrix": "EL4 tumour", "log2 fold change": 0.347}
{"item": "2'-deoxyguanosine 5'-monophosphate", "host": "mouse, EL4 tumour", "matrix": "tumour", "log2 fold change": -0.0369}
{"item": "arabonate/xylonate", "host": "mouse, EL4 tumour-bearing", "matrix": "EL4 tumour", "log2 fold change": 1.4}
{"item": "uracil", "host": "mouse, EL4 tumour-bearing", "matrix": "EL4 tumour", "log2 fold change": 0.0353}
{"item": "glutamate gamma-methyl ester", "host": "Mus musculus", "matrix": "EL4 tumour", "log2 fold change": -2.92}
{"item": "4-vinylphenol sulfate", "host": "mouse, EL4 tumour-bearing", "matrix": "EL4 tumour", "log2 fold change": -0.451}
{"item": "guanidinoacetate", "host": "mouse, EL4 tumour-bearing", "matrix": "EL4 tumour", "log2 fold change": 0.371}
{"method": "metabolomics", "item": "2-methylbutyrylcarnitine (C5)", "host": "mouse", "matrix": "EL4 tumour", "log2 fold change": -0.515}
{"item": "alpha-tocopherol", "host": "mouse, EL4 tumour-bearing", "matrix": "EL4 tumour", "log2 fold change": 0.591}
{"item": "alanine", "host": "mouse, EL4 tumour-bearing", "matrix": "EL4 tumour", "log2 fold change": -0.0474}
{"item": "N-acetylglutamate", "host": "mouse, EL4 tumour-bearing", "matrix": "EL4 tumour", "log2 fold change": 1.24}
{"method": "metabolomic profiling", "item": "tartronate (hydroxymalonate)", "host": "Mus musculus", "matrix": "EL4 tumour", "log2 fold change": 0.967}
{"note": "Excerpt of the above (set 3):"}
{"target": "ACVR2B (Homo sapiens, UniProt Q13705)", "effect on": "binding", "remaining binding": "87%"}
{"target": "CSNK1E (Homo sapiens, UniProt P49674)", "effect on": "cell-free assay", "remaining binding": "86%"}
{"target": "ACVR2A (Homo sapiens, UniProt P27037)", "effect on": "cell-free assay", "remaining binding": "83%"}
{"target": "Tyrosine-protein kinase ABL1, phosphorylated (ABL1, Homo sapiens, UniProt P00519)", "effect on": "cell-free assay", "remaining binding": "95%"}
